Published values of several laboratories.
A part holds a random share of what one study measured. “And” joins repeats or separate records; there may be more than shown.

Sample 1
Cell line: HaCaT
Concentration: 100 µM
Time: 18 h
Quantity: viability
SMILES = COc1cc2ccc(=O)oc2cc1O; result = 68.5%
SMILES = COCCc1ccc(OCC(O)CNC(C)C)cc1 (centres unmarked); result = 96.3%
SMILES = CCCNC(C)C(=O)Nc1c(C)csc1C(=O)OC (centres unmarked); result = 108%
SMILES = O=C(O)Cc1ccc(-c2ccccc2)cc1; result = 107%
SMILES = Cc1coc2c1C(=O)C(=O)c1c-2ccc2c(C)cccc12; result = 33.4%
SMILES = Cc1ccc2c(Cl)cc(Cl)c(O)c2n1; result = 77.5%
SMILES = Cc1ccc(C(=O)c2cc(O)c(O)c([N+](=O)[O-])c2)cc1; result = 41.5%
SMILES = C[C@H](CCC(=O)O)[C@H]1CC[C@H]2[C@@H]3CC[C@@H]4C[C@H](O)CC[C@]4(C)[C@H]3CC[C@]12C; result = 107%
SMILES = CCOC(=O)O[C@]1(C(=O)OCCl)CC[C@H]2[C@@H]3CCC4=CC(=O)C=C[C@]4(C)[C@H]3[C@@H](O)C[C@@]21C; result = 89.9%
SMILES = COc1cc(CCC(=O)O)ccc1O; result = 110%
SMILES = CNCCc1ccccn1; result = 107%
SMILES = CC(=O)OCC(=O)NCCCOc1cccc(CN2CCCCC2)c1; result = 94.6%

Sample 2
Organism: Plasmodium berghei
Action: inhibitor
Cell line: Huh-7
Strain: GFP-expressing, liver stage
Concentration: 10 µM
Time: 24 h
Baseline: untreated control
Quantity: infection rate
Compound = Nc1nc(N)c2nc(-c3ccccc3)c(N)nc2n1; result = 96.5%
Compound = CC(C(=O)O)c1ccc(C(=O)c2cccs2)cc1 (centres unmarked); result = 109%
Compound = CC[C@@H]1C(=O)OC[C@@H]1Cc1cncn1C; result = 105%
Compound = C[C@@H](NCCc1ccc(O)cc1)[C@@H](O)c1ccc(O)cc1 (racemic); result = 98.4%
Compound = COc1ccnc(C[S+]([O-])c2nc3cc(OC(F)F)ccc3[nH]2)c1OC (centres unmarked); result = 87.5%
Compound = NC(=O)NC(=O)Cc1ccccc1; result = 109%
Compound = CC[C@H]1OC(=O)C[C@@H](O)[C@H](C)[C@@H](O[C@@H]2O[C@H](C)[C@@H](O[C@H]3C[C@@](C)(O)[C@@H](O)[C@H](C)O3)[C@H](N(C)C)[C@H]2O)[C@@H](CC=O)C[C@@H](C)C(=O)/C=C/C(C)=C/[C@@H]1CO[C@@H]1O[C@H](C)[C@@H](O)[C@@H](OC)[C@H]1OC; result = 91.9%
Compound = CN[C@@H]1[C@@H](O)[C@@H](O[C@@H]2[C@@H](O)[C@H](O[C@H]3OC(CN)=CC[C@H]3N)[C@@H](N)C[C@H]2N)OC[C@]1(C)O; result = 68.8%

Sample 3
Target: Synaptic vesicular amine transporter (SLC18A2, Homo sapiens, UniProt Q05940)
UniProt Q05940, sequence (whole entry, looked up): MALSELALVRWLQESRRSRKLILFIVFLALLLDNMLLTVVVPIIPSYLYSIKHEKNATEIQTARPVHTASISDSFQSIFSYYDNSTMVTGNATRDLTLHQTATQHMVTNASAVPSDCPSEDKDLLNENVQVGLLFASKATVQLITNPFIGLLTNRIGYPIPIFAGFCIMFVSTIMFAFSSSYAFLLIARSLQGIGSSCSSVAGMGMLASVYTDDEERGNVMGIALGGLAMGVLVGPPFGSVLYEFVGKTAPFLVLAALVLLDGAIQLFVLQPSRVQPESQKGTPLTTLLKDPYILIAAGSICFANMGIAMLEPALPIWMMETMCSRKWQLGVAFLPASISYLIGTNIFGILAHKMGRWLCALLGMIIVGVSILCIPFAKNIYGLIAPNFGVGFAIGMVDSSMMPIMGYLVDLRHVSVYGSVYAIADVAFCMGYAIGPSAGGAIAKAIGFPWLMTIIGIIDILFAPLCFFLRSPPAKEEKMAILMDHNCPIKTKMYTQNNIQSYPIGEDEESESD
Action: inhibitor
Notes: literature data
Quantity: IC50
SMILES = Cc1cnc(NC(=O)C2=C(O)c3ccccc3S(=O)(=O)N2C)s1; result = > 10 µM
SMILES = CCN(CC)CCNC(=O)c1cc(Cl)c(N)cc1OC; result = > 10 µM
SMILES = CC(=O)c1c(C)c2cnc(Nc3ccc(N4CCNCC4)cn3)nc2n(C2CCCC2)c1=O; result = 9.2 µM
SMILES = Fc1ccc([C@@H]2CCNC[C@H]2COc2ccc3c(c2)OCO3)cc1; result = 6.7 µM
SMILES = COc1cc2nc(N3CCN(C(=O)C4CCCO4)CC3)nc(N)c2cc1OC (centres unmarked); result = 0.313 µM
SMILES = CN(Cc1cnc2nc(N)nc(N)c2n1)c1ccc(C(=O)N[C@@H](CCC(=O)O)C(=O)O)cc1; result = > 10 µM
SMILES = Nc1nc2ncc(CNc3ccc(C(=O)N[C@@H](CCC(=O)O)C(=O)O)cc3)nc2c(=O)[nH]1; result = > 10 µM
SMILES = Cc1c(Cl)c(C)[n+]([O-])c(Cl)c1-c1noc(-c2cc(O)c(O)c([N+](=O)[O-])c2)n1; result = 1.56 µM
SMILES = C=CC(=O)N1CCC[C@@H](n2nc(-c3ccc(Oc4ccccc4)cc3)c3c(N)ncnc32)C1; result = 5.2 µM
SMILES = CN[C@H]1CC[C@@H](c2ccc(Cl)c(Cl)c2)c2ccccc21; result = 1.71 µM
SMILES = CN1CC[C@@H](NC(=O)Nc2ccc(C#N)cc2)C[C@@H]1c1nc2ccccc2[nH]1; result = > 10 µM

Mixed results
SMILES = Cn1cncc1[C@@](O)(COc1ccc(C#N)cc1-c1ccc(OC(F)(F)F)cc1)c1ccc(C#N)cc1; cell line = HEK293T; test = high-content imaging; setting = 10 µM, 12 h; quantity = mitotic cells; result = 77.3% and 65.8%

For quick reference, copied from above (sample 3):
SMILES = CN[C@H]1CC[C@@H](c2ccc(Cl)c(Cl)c2)c2ccccc21; result = 1.71 µM
SMILES = CN1CC[C@@H](NC(=O)Nc2ccc(C#N)cc2)C[C@@H]1c1nc2ccccc2[nH]1; result = > 10 µM
